Published values gathered from unrelated publications.
“And” joins repeats or separate records; there may be more than shown. ± gives the spread as reported. In brackets after ≈: the same amount, converted by molar mass.

For `CC(=O)c1c(C)c2cnc(Nc3ccc(C4CCN(CCS(C)(=O)=O)CC4)cn3)nc2n(C2CCCC2)c1=O`, “elimination rate constant” read 2.78e-05 s⁻¹ (human patients, plasma; oral, 100 mg twice daily, day 21 multiple doses, together with: fulvestrant).
`CC(C)(C)c1cc(-n2nc3ccccc3n2)c(O)c(C(C)(C)C)c1` — result for “daily dermal exposure dose”: 3.73 ng/kg/day (human aged 21-60 years; concentration not given, foundation, 95th percentile).
For `CC[C@H](C)[C@H](NC(=O)[C@H](CC(C)C)NC(=O)[C@H](Cc1c[nH]c2ccccc12)NC(=O)[C@H](CCC(N)=O)NC(=O)[C@@H](NC(=O)[C@H](Cc1ccccc1)NC(=O)[C@H](C)NC(=O)[C@H](CCCCNC(=O)COCCOCCNC(=O)COCCOCCNC(=O)CC[C@H](NC(=O)CCCCCCCCCCCCCCCCCCC(=O)O)C(=O)O)NC(=O)[C@H](CCC(N)=O)NC(=O)[C@H](C)NC(=O)[C@@H](NC(=O)[C@H](CCCCN)NC(=O)[C@H](CC(=O)O)NC(=O)[C@H](CC(C)C)NC(=O)C(C)(C)NC(=O)[C@@H](NC(=O)[C@H](CO)NC(=O)[C@H](Cc1ccc(O)cc1)NC(=O)[C@H](CC(=O)O)NC(=O)[C@H](CO)NC(=O)[C@@H](NC(=O)[C@H](Cc1ccccc1)NC(=O)[C@@H](NC(=O)CNC(=O)[C@H](CCC(=O)O)NC(=O)C(C)(C)NC(=O)[C@@H](N)Cc1ccc(O)cc1)[C@@H](C)O)[C@@H](C)O)[C@@H](C)CC)[C@@H](C)CC)C(C)C)C(=O)N[C@@H](C)C(=O)NCC(=O)NCC(=O)N1CCC[C@H]1C(=O)N[C@@H](CO)C(=O)N[C@@H](CO)C(=O)NCC(=O)N[C@@H](C)C(=O)N1CCC[C@H]1C(=O)N1CCC[C@H]1C(=O)N1CCC[C@H]1C(=O)N[C@@H](CO)C(N)=O`, the CL/F was 0.535 mL/min (human, plasma; subcutaneous, 15 mg, week 8, geometric mean).
Under “literature range factor”, `Clc1ccc(Cl)c(-c2cc(Cl)ccc2Cl)c1` is recorded as 1.4 (polyethylene-water partitioning; PCB compilation; baseline: maximum over minimum K).
For `O=[N+]([O-])c1cc2c3c(ccc2c2ccccc12)[C@H](O)[C@@H](O)C=C3`, “tumours per rat” read 0.08 ± 0.28 (measured: others mammary tumours; female Sprague-Dawley rats; intramammary, 12.3 µmol per rat, up to 32 weeks).
`CC(C)C[C@@H]1NC(=O)CNC(=O)[C@H](CC(N)=O)NC(=O)[C@H](CCCNC(=N)N)NC(=O)[C@H]([C@@H](C)O)NC(=O)[C@@H]2CSSC[C@@H]3NC(=O)[C@H]([C@@H](C)O)NC(=O)CNC(=O)CNC(=O)[C@H](C(C)C)NC(=O)[C@@H]4CSSC[C@H](NC(=O)[C@H]([C@@H](C)O)NC(=O)[C@H](CSSC[C@H](NC(=O)[C@H](C(C)C)NC(=O)[C@@H]5CCCN5C1=O)C(=O)NCC(=O)N[C@@H](CCC(=O)O)C(=O)N[C@@H]([C@@H](C)O)C(=O)N4)NC(=O)CNC(=O)[C@@H]1CCCN1C(=O)[C@H]([C@@H](C)O)NC(=O)[C@H](CC(N)=O)NC3=O)C(=O)N[C@@H](CO)C(=O)N[C@@H](CCCCN)C(=O)N1CCC[C@H]1C(=O)N[C@@H](C(C)C)C(=O)N2` has a remaining peptide of 52.6 ± 2.4% (HPLC; ammonium bicarbonate 0.1 M; 180 µM, 14 days, pH 9.0, 37 °C, deamidation stability).
For `O=C(NCCCNc1nc(Nc2cccc(NC(=O)N3CCCC3)c2)ncc1I)c1cccs1`, the solubility was 690 ± 150 µg/mL (≈ 1170 µM) (Peceol; 24 h, 37 °C).
With `COc1cc(C2C3=C(COC3=O)N(CCO)c3cc4c(cc32)CCC4)cc(OC)c1OC` (centres unmarked) the body weight was 210 g (female Sprague-Dawley rats; intraperitoneal, 100 mg/kg, 48 h, single dose, mean).
Under “serious TEAE incidence”, `COc1ccc(-c2c(-c3ccc(C#N)c(F)c3)nc(N3CCC(N)CC3)n(C)c2=O)cc1F` is recorded as 0% (measured: duodenal obstruction; human patients; oral, 60 mg, dose expansion).
The toxicity of `CN1CCN(c2ccc(Nc3nccc(-c4cccc(C#N)c4)n3)cc2C(F)(F)F)CC1` is reported as 0% (Danio rerio embryos; 5 µM, 5 d).
With `C1=Cc2nc1cc1ccc([n-]1)c(C1CC1)c1nc(cc3ccc([n-]3)c2C2CC2)C=C1.CC(=O)[O-].[Mn+3]` the plasma concentration was 219 ng/mL (LC-MS/MS; Sprague-Dawley rat, plasma; oral gavage, dose not given, 360 min, individual rat Rat1).
For `CC(C)CC(=O)OC[C@H]1O[C@@](C#N)(c2ccc3c(N)ncnn23)[C@H](O)[C@@H]1O`, the fraction bound was 0.837 (mouse plasma; 9 µM).
Under “mean amount excreted in urine”, `N=C(N)NCCC[C@@H](NC(=O)[C@@H](N)Cc1ccccc1)C(=O)N[C@@H](Cc1ccccc1)C(=O)N[C@@H](CCCCN)C(N)=O` is recorded as 111000 ng (LC-MS; human; 5 mg, 23.83 h).
`O=C(O)CCCOc1ccc(F)cc1-c1cc(-c2ccccc2C(F)(F)F)n(-c2ccccc2)n1` has an HCT of 41.6% and 39.9% and 42.3% and 41.7% and 40% (female Crl:CD(SD) rats; intravenous, 25 µg/kg, 14 d).
`C[C@@H]1NC(=O)[C@H](CCCCNC(=O)CO/N=C/C(=O)NCCCC[C@@H]2NC(=O)[C@@H](Cc3ccccc3)NC(=O)[C@H](CC(=O)O)NC(=O)CNC(=O)[C@H](CCCNC(=N)N)NC2=O)NC(=O)CNC(=O)[C@@H]2CCCN2C(=O)[C@H](CCCCNC(=O)CO/N=C/C(=O)NCCCC[C@@H]2NC(=O)[C@@H](Cc3ccccc3)NC(=O)[C@H](CC(=O)O)NC(=O)CNC(=O)[C@H](CCCNC(=N)N)NC2=O)NC(=O)[C@H](CCCCNC(=O)CN2CCCNCCNCCCNCC2)NC(=O)[C@H](CCCCNC(=O)CO/N=C/C(=O)NCCCC[C@@H]2NC(=O)[C@@H](Cc3ccccc3)NC(=O)[C@H](CC(=O)O)NC(=O)CNC(=O)[C@H](CCCNC(=N)N)NC2=O)NC(=O)CNC(=O)[C@@H]2CCCN2C(=O)[C@H](CCCCNC(=O)CO/N=C/C(=O)NCCCC[C@@H]2NC(=O)[C@@H](Cc3ccccc3)NC(=O)[C@H](CC(=O)O)NC(=O)CNC(=O)[C@H](CCCNC(=N)N)NC2=O)NC1=O` [copper-64 labelled] has a tissue uptake of 1.4 ± 0.17 %ID/g (normal mice, stomach; intravenous, 0.74 MBq, 24 h post-injection).
`CC/C(=C(\c1ccccc1)c1ccc(OCCN(C)C)cc1)c1ccccc1`: “elimination rate constant” 1.73e-05 s⁻¹ (CD-1 mouse, male, plasma; intraperitoneal, 10 mg/kg).
`CN1CC[C@@H](c2c(O)cc(O)c3c(=O)cc(-c4ccc(C(F)(F)F)cc4Cl)oc23)[C@@H]1CO`: “patients with adverse event” 12.5% (measured: Pyrexia; B-cell malignancies or AML; oral, 100 mg, continuous dosing).
With `c1ccc2c(c1)ccc1cc3c(ccc4ccccc43)cc12` the log K(PDMS-water) was 5.26 ± 0.21 (fresh water; 12 (unit not given), 20 °C, S100 sampler, 100 µm).
For `Clc1ccc(Cl)c(-c2cc(Cl)ccc2Cl)c1`, “relative organ weight” read 0.0028 g/g body weight (Sprague Dawley rat, thymus; intraperitoneal, 10 mg/kg).
With `Cc1cc(C)c(CNC(=O)c2cc(Cl)c3c(c2C)O[C@@](C)([C@H]2CC[C@H](N(C)C)CC2)O3)c(=O)[nH]1` the Diarrhoea incidence was 0% (human, relapsed/refractory NHL; concentration not given, treatment-related TEAEs, grade 5).
`COc1cc2c(Oc3ccc4[nH]c(C)cc4c3F)ccnc2cc1OCC1(N)CC1` has a Nausea incidence of 0% (paediatric recurrent refractory sarcoma; 8 mg).
For `CC[C@H](C)[C@@H]1NC(=O)[C@@H]2CSSC[C@H](NC(=O)[C@H](CCCNC(=N)N)NC(=O)[C@@H]3CSSC[C@H](NC1=O)C(=O)N[C@@H]([C@@H](C)O)C(=O)N[C@@H](CCCNC(=N)N)C(=O)NCC(=O)N[C@@H](Cc1ccccc1)C(=O)N3)C(=O)N[C@@H](CC(C)C)C(=O)N[C@H]1CSSC[C@H](NC(=O)[C@H](C(C)C)NC(=O)CNC(=O)[C@H](CCCNC(=N)N)NC(=O)[C@H](CCCNC(=N)N)NC1=O)C(=O)N[C@@H](CCCNC(=N)N)C(=O)N2`, “lung eosinophilic infiltration score” read 1 to 2 (Sprague-Dawley rat, female, lung; 10 mg/kg, perivascular, peribronchiolar; direction not given).
`CO[C@H]1C[C@@H]2CC[C@@H](C)[C@@](O)(O2)C(=O)C(=O)N2CCCC[C@H]2C(=O)O[C@H]([C@H](C)C[C@@H]2CC[C@@H](OC(=O)NCCOCCOCCOCCOCCOCCOCCOCCOCCC(=O)N3CCc4cc(Cn5nc(-c6ccc7oc(N)nc7c6)c6c(N)ncnc65)ccc4C3)[C@H](OC)C2)C[C@@H](O)[C@H](C)/C=C(\C)[C@@H](O)[C@@H](OC)C(=O)[C@H](C)C[C@H](C)/C=C/C=C/C=C/1C` gave a TRAE incidence of 8.3% (phase 1 dose escalation, measured: headache; advanced solid tumour patients; intravenous, 6 mg weekly, any grade).
Under “incidence of grade 3 or higher AEs”, `C[C@@H](NC(=O)N1C(=O)[C@H](Cc2ccnc(N)c2)[C@H]1C(=O)O)C1CCCCC1` is recorded as 0% (healthy adult Chinese volunteers; continuous intravenous infusion, 1.5 mg/kg/h, 5-day infusion, CTCAE 5.0 grading).
`CCN1CC2(CCN(CCc3cc(F)ccc3F)CC2)O[C@H](C)C1=O` gave an AUC(0-inf) of 1100 ± 102 ng·h/mL (ferret, plasma; intraperitoneal, 0.5 mg/kg).
Under “any adverse event incidence”, `C[C@]1(CO)Cc2ncn(-c3ccc(C#N)c(Cl)c3)c2C(=O)O1` is recorded as 33.3% (Japanese subjects; 20 mg single dose).
`Clc1ccc(-c2cc(Cl)c(Cl)c(Cl)c2Cl)cc1` — result for “literature range factor”: 1.1 (PDMS-water partitioning; PCB compilation; baseline: maximum over minimum K).
For `COc1cccc(Oc2ccccc2NC(=O)CNC(=O)c2cccc3ccccc23)c1`, “urea nitrogen/creatinine ratio” read 300 and 180 and 185 (esterase-deficient SCID mice, male; oral, 15 mg/kg/day, 14 days, toxicity study).
With `N.N.[Cl][Pt][Cl]` the BUN was 33.1 ± 12 mg/dL (nude mice, serum; dose not given, 10 days).
